Experimental data collected from several papers.
A part holds a random share of what one study measured. Changes are numbered by the printed parent chain.

Block 1 — target: CCND2, cyclin fold, Cln2 fusion (human); method: yeast growth competition, sequencing; matrix: yeast; setting: weak parent motif; baseline: not given; direction: higher = stronger binding
Starting sequence: RB1 docking peptide (human); PKPLKKLRFDIEG
`PGPLKKLRFDIEG [K2G]` — result for “normalised enrichment score”: 0.00796.
Under “normalised enrichment score”, `PKPLKKLRFDIIG [E12I]` is recorded as 0.398.
For `PKPLKKLRFDIEH [G13H]`, “normalised enrichment score” read 0.387.
For `PKPLKKLRADIEG [F9A]`, “normalised enrichment score” read 0.566.
Under “normalised enrichment score”, `PKPLKYLRFDIEG [K6Y]` is recorded as -0.163.
Under “normalised enrichment score”, `PKPLKKLRFDILG [E12L]` is recorded as -0.000983.
Under “normalised enrichment score”, `PKPLKKLRYDIEG [F9Y]` is recorded as -0.111.
For `PKPLKKLIFDIEG [R8I]`, “normalised enrichment score” read 0.144.
Under “normalised enrichment score”, `PKPLKPLRFDIEG [K6P]` is recorded as 0.179.
For `PKPLKKRRFDIEG [L7R]`, “normalised enrichment score” read 0.51.
For `PKSLKKLRFDIEG [P3S]`, “normalised enrichment score” read 0.621.
`PRPLKKLRFDIEG [K2R]` — result for “normalised enrichment score”: 0.639.

Block 2 — method: Sort-seq; measured: YFP reporter; matrix: E. coli; setting: PhoQ-PhoP variant library; with: 10 µM Mg2+; baseline: high Mg2+ state; direction: higher = stronger signaling
Molecule: PhoQ, residues 284 288 289 292 302 303 TTCLQL
The fold induction was 3.14 (PhoP, residues 12 14 15 18 19 LHTVL (Escherichia coli, UniProt P23836)).
The fold induction was 4.97 (PhoP, residues 12 14 15 18 19 TQAML (Escherichia coli, UniProt P23836)).
It gave 8.29 for fold induction (PhoP, residues 12 14 15 18 19 NQCAL (Escherichia coli, UniProt P23836)).

Block 3 — method: DHFR PCA, deep sequencing; matrix: yeast; with: (+)-ABA 2500 µM; baseline: wild-type fitted maximum; direction: higher = stronger binding
Target: ABI1, truncated, D143A, DHFR fusion (Arabidopsis thaliana)
Setting: methotrexate growth selection, single substitutions
Starting sequence: PYL1, truncated, DHFR fusion (Arabidopsis thaliana); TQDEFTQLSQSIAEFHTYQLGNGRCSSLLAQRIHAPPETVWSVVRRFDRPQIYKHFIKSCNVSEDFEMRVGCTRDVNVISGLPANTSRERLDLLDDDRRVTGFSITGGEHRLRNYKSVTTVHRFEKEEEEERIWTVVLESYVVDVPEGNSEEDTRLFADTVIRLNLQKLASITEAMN
`Y18Q`: “relative binding score” 91.4%.
`H55I` — result for “relative binding score”: 92.7%.
`L20M`: “relative binding score” 91.2%.
For `L8M`, “relative binding score” read 101%.
`I12H`: “relative binding score” 88.6%.
For `Q2V`, “relative binding score” read 94.9%.
Under “relative binding score”, `I52C` is recorded as 95.9%.
`V78H`: “relative binding score” 70.3%.
`P37I`: “relative binding score” 101%.

Block 4 — method: RNA Bind-n-Seq; form: RNA; matrix: in vitro; concentration: 200 nM; setting: whole 134-nt RNA, ends assumed; with: 150 mM LiCl; baseline: input library; direction: higher = stronger binding; all molecules: 7-deaza-guanosine replaces G
Target: Ras GTPase-activating protein-binding protein 1, full length (G3BP1, Homo sapiens, UniProt Q13283)
Sequence of UniProt Q13283 (whole entry, looked up): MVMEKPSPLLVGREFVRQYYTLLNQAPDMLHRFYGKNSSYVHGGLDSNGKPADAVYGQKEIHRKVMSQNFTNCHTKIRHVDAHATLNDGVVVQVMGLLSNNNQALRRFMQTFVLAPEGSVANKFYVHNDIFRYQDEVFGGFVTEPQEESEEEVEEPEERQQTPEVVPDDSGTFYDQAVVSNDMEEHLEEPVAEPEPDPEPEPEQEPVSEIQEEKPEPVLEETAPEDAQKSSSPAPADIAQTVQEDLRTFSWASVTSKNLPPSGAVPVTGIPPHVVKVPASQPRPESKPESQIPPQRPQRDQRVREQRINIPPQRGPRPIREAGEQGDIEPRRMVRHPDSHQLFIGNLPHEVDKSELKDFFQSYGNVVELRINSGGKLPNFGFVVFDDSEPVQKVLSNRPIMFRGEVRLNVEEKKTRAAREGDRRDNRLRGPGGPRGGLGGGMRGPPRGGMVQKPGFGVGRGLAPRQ
Shared flanks, not repeated: GGGAGUUCUACAGUCCGACGAUC … UGGAAUUCUCGGGUGUCAAGG
With `GCAGGAAGUAAAAACAAAUGGAAAUGCUUCGGAUAGUGGCAGGGGUGGGGGUUGCUAGGGAAAGGGUGGGAUGGGAGUGGGUAAAGAGUU` the log2 enrichment was -0.369.
With `UAACUUUAGAGGAGGAUCUGAUGGAUUUGGCAGUGGACGUGGAUUUGGGGAUGGCUAUAAUGGGUAUGGAGGAGGACCUGGAGGUGGCAA` the log2 enrichment was -0.144.
For `GCAGGAAGUAAAAACAAAUGGAAAUGCUUCGGAUAGUGGCAGGGGUGGGGGUUGCUAAGGAAAGGGUGGGAUAGGAGUGGGUAAAGAGUU`, the log2 enrichment was -0.0587.
For `AGCAUGCAGGUGGGCAUCUUUGGGAAGUGGGGCAAGGGGGGGAUAGGGAGGGGGGUAACACUUUGGGAACAGGUGGUCCCAGGUCGUUUC`, the log2 enrichment was 0.0192.
`GUCCUGUGCUACACAUCGUAUGUACCGAAUCAAACCCCCAAACCCCCCCAAAUUUAAAAAAGUAUUAUGUUACGCCGUUCGGAUCUGCAC` gave a log2 enrichment of 0.327.
The log2 enrichment of `AGUCCUGUGCUACACAUCGUAUGUACCGAAUCGGGGAAAAGGGGAAAAGGGAAAAGGGAAAGUAUUAUGUUACGCCGUUCGGAUCUGCAC` is reported as 0.0952.
The log2 enrichment of `UGUCCCUGACUCUCCAUUUCCCCAUCUGAGUGGAUUUGGACCUAAUAGGGCACUGGAGCUGGUUCGAAUCCUGACUGGACUACUUGGCAA` is reported as 1.15.
`UCCUGUGCUACACAUCGUAUGUACCGAAUCGGGUUUUUUGGGGUUUUUUGGGUUUUUUGGAAAGUAUUAUGUUACGCCGUUCGGAUCUGC` gave a log2 enrichment of 0.945.
With `AAGUCCUGUGCUACACAUCGUAUGUACCGAAUCGGAAAAAAAGGAAAAAAAGGAGGAAAGUAUUAUGUUACGCCGUUCGGAUCUGCACUU` the log2 enrichment was -0.772.
`ACUUUGUCAGAUAUUGCUAGGGACCAGUGAGAUAGAUAAUCCAAAAAUAAUAAUUUGACUUUGGUUGAGUAUGUCAUUACCACAGUGUUA` has a log2 enrichment of -2.11.
`UGGCCCUGGUGGCAUGCGGGGAGGAAGAGGUGGCCUCAUGGAUCGUGGUGGUCCCGGUGGAAUGUUCAGAGGUGGCCGUAGUGGAGACAG` has a log2 enrichment of -0.345.

Some of these lines once more (block 3):
`I12H`: “relative binding score” 88.6%.
For `Q2V`, “relative binding score” read 94.9%.
Under “relative binding score”, `I52C` is recorded as 95.9%.
`V78H`: “relative binding score” 70.3%.
`P37I`: “relative binding score” 101%.
